Assay results of several laboratories.
A part holds a random share of what one study measured. Substitutions count along the parent as printed.

Series 1
Target: Histone acetyltransferase KAT6A, both winged helices, GST fusion (KAT6A, Homo sapiens, UniProt Q92794, residues 1-181)
Method: protein binding microarray
Molecule type: double-stranded DNA, one strand shown
Sample: in vitro
Concentration: not given
Setting: 8-mer, flanks averaged, mean of 2 arrays, mostly near background
Baseline: not given
Reading: higher = stronger binding
Target sequence (chain): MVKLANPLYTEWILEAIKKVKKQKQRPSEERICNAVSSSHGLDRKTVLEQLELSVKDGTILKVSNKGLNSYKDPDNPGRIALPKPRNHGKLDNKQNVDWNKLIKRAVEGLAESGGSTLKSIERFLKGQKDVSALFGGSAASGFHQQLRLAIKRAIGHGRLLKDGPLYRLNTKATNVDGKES
For `CAGAGGCA`, the E-score was -0.11.
For `GAGCTTGA`, the E-score was -0.102.
With `ATTGTAAC` the E-score was -0.0249.
For `CGATAGCG`, the E-score was 0.228.
With `ATACAACA` the E-score was -0.0725.
The E-score of `ACCACTTG` is reported as -0.174.
With `CTGTTGAA` the E-score was -0.0566.
`AGAACGGG` has an E-score of 0.138.
With `CTCCGAAG` the E-score was -0.0149.
For `CATACAAA`, the E-score was 0.0574.
`ACAAATTA` has an E-score of 0.0125.
With `ACAGTTTG` the E-score was 0.0418.
`ACTTGAGA` has an E-score of -0.103.
`GTCGACAA` gave an E-score of -0.0688.
`CCCCAACG` gave an E-score of -0.0378.
The E-score of `ATCACATA` is reported as -0.0485.
`CAAACAAA` gave an E-score of -0.238.
`ACGAACCA` has an E-score of 0.0104.

Series 2
Target: CCNF, cyclin fold, Cln2 fusion (human)
Method: yeast growth competition, sequencing
Sample: yeast
Setting: strong parent motif
Baseline: not given
Reading: higher = stronger binding
Starting sequence: RB1 docking peptide (human); PKPLKKLRFDIEG
`K5P`: “normalised enrichment score” 0.14.
Under “normalised enrichment score”, `K2E` is recorded as 1.9.
Under “normalised enrichment score”, `K6G` is recorded as 0.295.
For `L4Q`, “normalised enrichment score” read 3.65.
For `E12P`, “normalised enrichment score” read 1.43.
Under “normalised enrichment score”, `R8D` is recorded as 1.51.
For `R8C`, “normalised enrichment score” read 1.57.
`R8P` — result for “normalised enrichment score”: 0.795.
`K5F`: “normalised enrichment score” 0.535.
`K5G`: “normalised enrichment score” 0.282.
`P3H` — result for “normalised enrichment score”: -0.055.
For `G13Q`, “normalised enrichment score” read 1.2.
For `I11D`, “normalised enrichment score” read 0.75.
For `R8L`, “normalised enrichment score” read 1.95.
`I11S`: “normalised enrichment score” 1.33.
`K2G` — result for “normalised enrichment score”: 0.0921.
For `G13C`, “normalised enrichment score” read 2.27.
`F9L`: “normalised enrichment score” 0.649.

Series 3
Target: Prothrombin, mature alpha-thrombin (F2, Homo sapiens, UniProt P00734)
Method: aptamer microarray, sandwich
Molecule type: DNA with 2'F-ANA
Sample: in vitro
Concentration: 200 nM
Setting: whole 15-mer aptamer, many near background
Added: Cy3 exosite-II aptamer, 400 nM
Reading: higher = stronger binding
Strand: GGTTGGTGTGGTTGG
Under “mean fluorescence intensity”, `2'F-ANA at 5 7 9 11 12 13 15` is recorded as 93.7 a.u.
For `2'F-ANA at 1 4 7 8 9 10 13 14`, “mean fluorescence intensity” read 46.6 a.u.
For `2'F-ANA at 1 2 5 8 10 11 12 13 14 15`, “mean fluorescence intensity” read 48.9 a.u.
`2'F-ANA at 2 4 5 6 7 8 9 10 11 13` — result for “mean fluorescence intensity”: 48.6 a.u.
`2'F-ANA at 1 2 3 4 5 6 9 13 15` — result for “mean fluorescence intensity”: 52.9 a.u.
For `2'F-ANA at 2 4 6 7 9 11 12 14`, “mean fluorescence intensity” read 114 a.u.
For `2'F-ANA at 1 3 8`, “mean fluorescence intensity” read 394 a.u.
Under “mean fluorescence intensity”, `2'F-ANA at 1 2 3 4 7 8 9 13 15` is recorded as 134 a.u.
Under “mean fluorescence intensity”, `2'F-ANA at 3 4 7 8 9 10 12` is recorded as 487 a.u.
Under “mean fluorescence intensity”, `2'F-ANA at 2 3 4 8 9 10 15` is recorded as 245 a.u.
`2'F-ANA at 2 5 6 9 10 13 15` — result for “mean fluorescence intensity”: 78.5 a.u.
Under “mean fluorescence intensity”, `2'F-ANA at 2 3 4 7 8 10 14` is recorded as 202 a.u.
Under “mean fluorescence intensity”, `2'F-ANA at 3 5 8 9 11 14 15` is recorded as 59 a.u.
`2'F-ANA at 1 2 6 7 9 10 14`: “mean fluorescence intensity” 45.4 a.u.
`2'F-ANA at 1 3 4 5 6 8 10 13` — result for “mean fluorescence intensity”: 57.5 a.u.

Other studies, line by line
`PhoQ, residues 284 288 289 292 302 303 TSTLRA` has a fold induction of 3.34 (PhoP, residues 12 14 15 18 19 LWHVM (Escherichia coli, UniProt P23836); Sort-seq, item: YFP reporter; E. coli; PhoQ-PhoP variant library, added: 10 µM Mg2+; baseline: high Mg2+ state, higher = stronger signaling).

A few entries again (series 1):
With `ACAGTTTG` the E-score was 0.0418.
`ACTTGAGA` has an E-score of -0.103.
`GTCGACAA` gave an E-score of -0.0688.
`CCCCAACG` gave an E-score of -0.0378.
